Experimental data pooled from the literature.
Each numbered part is a random draw from the data of one study; scales do not carry over between parts. Substitutions count along the parent as printed.

Set 1
Target: Hepatocyte nuclear factor 3-alpha (Foxa1, Mus musculus, UniProt P35582, residues 1-468, full length assumed)
Sequence of UniProt P35582 (whole entry, looked up): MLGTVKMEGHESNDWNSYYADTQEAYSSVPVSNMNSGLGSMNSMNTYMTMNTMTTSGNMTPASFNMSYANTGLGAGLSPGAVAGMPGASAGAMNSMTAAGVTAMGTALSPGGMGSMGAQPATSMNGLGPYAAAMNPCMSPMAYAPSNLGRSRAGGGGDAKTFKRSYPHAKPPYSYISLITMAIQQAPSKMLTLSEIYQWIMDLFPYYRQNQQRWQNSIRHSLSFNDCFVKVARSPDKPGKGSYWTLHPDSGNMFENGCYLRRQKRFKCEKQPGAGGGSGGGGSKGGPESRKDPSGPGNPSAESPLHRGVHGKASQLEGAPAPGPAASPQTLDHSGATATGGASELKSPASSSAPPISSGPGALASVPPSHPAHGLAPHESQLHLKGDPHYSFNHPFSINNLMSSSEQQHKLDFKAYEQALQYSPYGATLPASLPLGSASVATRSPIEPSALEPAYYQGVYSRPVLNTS
Method: EMSA with sequencing
Form: double-stranded DNA, one strand shown
Matrix: in vitro
Concentration: 10 and 20 nM
Notes: whole designed probe, mean of two concentrations, ends assumed
Reference: negative control set to 0
Direction: higher = stronger binding
Strand	normalised bound fraction [ratio]
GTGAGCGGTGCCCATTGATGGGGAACTTAATAAAGCAGCAAGACCAGAGGTTGGGTTCTTGTATTGTTGCTTGAAGCAGTGTTAAAGATACACCGACATGACTAAAATGCATTGCTGAGTAAACAAGCACGGATTTTAAAGTTTAATATGATTAATGCAACTTGATGCCAAACTCTGAATGTCTCCTAAGGCTTCCAAGTTACTGAAAAGCAGCCAATATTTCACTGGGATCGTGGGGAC	0.384
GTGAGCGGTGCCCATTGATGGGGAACACTATCATCCATTTTCAGAAAGAAAAATTTATGTAATGATAATGATAACCAAGGAATTATAACTAGCGGATAAAGTGAAAGTTCAGATGTCAAAGTAAACAGAGACTTCTTTGAGTTGATGTAATTCCTGAGAAAAAAATCATTTTACTATATAATAGAGATTATATAACAACTTTAATTTTCATCACAAGAGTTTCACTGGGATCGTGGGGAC	0.386
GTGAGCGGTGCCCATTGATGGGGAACATCTTCCCCCTCTTCCTTGCCCCACCAGCTCACCTTCCCGGGTCAAAGTAAACAAGTGTTTACTTTGAAGCCGGCATTCGTTAACCCTCTTCTGGCGCAAACTGCCAGAGCAAACAGATCTAACATGGTCCTTTGGCGACGCCAGGCTCCGGGAGAGCAAAGCACCGTGTCAGGGCCATGATCCGGGGTGGCCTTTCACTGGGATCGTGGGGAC	0.463
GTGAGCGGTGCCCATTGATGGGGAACAGGTTAAAGATTACATTCTAACCACACACCAGTCATACTCTGCTCCGGGAAAAACCTTAAGTACTTGTGAGCATCTGTCCCTAACTTAGATGTTGTTTACTTTCAGTTTACATACAGTGCAAACACCAGGGTGTACATGATTTTCAAGTCAAAAAAGATAAGGACTAATCCAGAAAGGAGAAGGAATTCTGTTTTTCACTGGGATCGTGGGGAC	0.372
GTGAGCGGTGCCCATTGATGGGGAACTGAAGTTATAATAGATGTGAGGAGTTTCCTATTGCTGAAAAATTACTTTTTCTAGAGGTTAAGAAGAGCTTTTAGAGTCAGAAAGACTTGACTAGATGACTCTAAAGTCCTGGCTGGTGGTGGGTGCAGTGACTCACGCCCATAATCTCAACACTTTGGGAGGCCGAGGTGGGTGGATCACTTGAGGTCAGGATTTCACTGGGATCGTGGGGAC	-0.0822

Set 2
Target: RING finger protein unkempt homolog, zinc fingers 1-6, GST-SBP tag (UNK, Homo sapiens, UniProt Q9C0B0, residues 30-357)
Sequence of UniProt Q9C0B0 (30-357, looked up): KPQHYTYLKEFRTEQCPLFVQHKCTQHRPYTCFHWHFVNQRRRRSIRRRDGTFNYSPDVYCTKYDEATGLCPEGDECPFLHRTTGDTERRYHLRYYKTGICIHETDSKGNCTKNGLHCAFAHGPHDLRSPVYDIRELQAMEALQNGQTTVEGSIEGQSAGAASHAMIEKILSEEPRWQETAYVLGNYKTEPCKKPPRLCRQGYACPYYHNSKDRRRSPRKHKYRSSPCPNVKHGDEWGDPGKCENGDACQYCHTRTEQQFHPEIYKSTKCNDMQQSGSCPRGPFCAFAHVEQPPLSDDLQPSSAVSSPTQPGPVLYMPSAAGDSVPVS
Method: RNA Bind-n-Seq
Form: RNA
Matrix: in vitro
Concentration: not given
Notes: RNA with constant flanks, human and mouse sites, ends assumed
Reference: input RNA pool
Direction: higher = stronger binding
Strand	bound/input enrichment
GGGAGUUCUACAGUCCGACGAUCGACUGGGAGCAGACUCAGAAAAUCUACAAUUGUCACGUGCUGCUGAACAGCAAAGGGGCAGUAGUGGCCACUUACAGGAAGACACAUCUGUGUGACGUAGAGAUUCCAGGGCAGGGGCCUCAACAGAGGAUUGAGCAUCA	0.148 ratio
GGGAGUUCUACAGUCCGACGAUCAAACUGGCUGUUCAGAUUGGCAAAGCAGGUCUGUUGAUGUCUGCCAUCACAGUUAUCAUUCUAGUAUUAUAUUUUGUCAUUGACACCUUCUGGGUUCAGAAAAGACCAUGGCUUGCUGAGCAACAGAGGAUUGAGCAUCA	13.6 ratio
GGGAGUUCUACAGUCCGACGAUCGUUGCUGUGAACUCAGGAGGAAAGCAUUGCCUUGCUCUCUCUUCAGAAGGCGAAGUUUACUCUUGGGGCGAGGCAGAAGAUGGGAAGUUGGGACAUGGCAACAGAAGUCCAUGUGACCGCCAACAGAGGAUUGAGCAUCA	0.126 ratio
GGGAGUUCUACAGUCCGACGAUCUGGAAGCUUUGCUGAAAACCUUUCAUUUCUUCUGGAAGCUUUGCAAAAAGGUGACCGGACUAGCAGUUGCCCAGUGAUCUUCAUACUGGAUGAAUUUGAUAUUUUUGCUCAUCAGAAAAACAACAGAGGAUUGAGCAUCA	0.587 ratio
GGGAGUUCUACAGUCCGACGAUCGUACCCCAUCGCGGUGCUCAUAGACGAACUCCGCAAUGAGGACGUUCAGCUUCGCCUCAACAGCAUCAAGAAGCUGUCCACCAUCGCCUUGGCCCUUGGGGUUGAAAGGACCCGAAGUGACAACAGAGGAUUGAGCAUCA	0.0614 ratio
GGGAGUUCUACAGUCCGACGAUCACUGGGAUUACAGGUAUGCACCUAUCAACUUGGGAGUUGAGGGUUUUUUGUUUUGUUUUUUUUUUUUUUAAGGUAAACAACAGUGGGAAAACGGCUCCUUCAUAAAUGAAAACUGUGCACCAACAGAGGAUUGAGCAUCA	0.684 ratio
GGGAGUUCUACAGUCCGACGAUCGCUUCGACCCAGCUGAGGAGCGAAGAGCUGCUGGCAGCGCCGAUUCCCAGCACGCCGCUUUUUAGAACUUCAGUUGUCAAAAUGGGCAGAAUCUUUCUUGACCAUAUCGGUGGUACCCGUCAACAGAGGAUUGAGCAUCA	0.131 ratio
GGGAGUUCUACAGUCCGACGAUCGAGGCCCUAGCCAGUCCACAGAUUGUAGCGGCAUUCACCUCUCAGGCUGUAGAUCAGUCCAAAGUGUUUGUGAAGGUGUUUACUGAAAUUGACCGGAUGCCCCAGCUCCUGGCCUACUACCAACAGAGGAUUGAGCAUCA	0.0662 ratio

Set 3
Target: CCNE2, cyclin fold, Cln2 fusion (human)
Method: yeast growth competition, sequencing
Matrix: yeast
Notes: weak parent motif
Reference: not given
Direction: higher = stronger binding
Starting sequence: RB1 docking peptide (human); PKPLKKLRFDIEG; partner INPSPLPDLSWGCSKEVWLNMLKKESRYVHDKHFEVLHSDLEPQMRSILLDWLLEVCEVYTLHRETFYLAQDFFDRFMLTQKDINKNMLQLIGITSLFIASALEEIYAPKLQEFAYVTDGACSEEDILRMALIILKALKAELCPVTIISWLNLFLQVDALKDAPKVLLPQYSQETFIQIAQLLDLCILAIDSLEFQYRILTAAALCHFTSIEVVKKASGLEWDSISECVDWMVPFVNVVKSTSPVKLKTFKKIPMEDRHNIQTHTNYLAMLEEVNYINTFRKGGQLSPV
Change	normalised enrichment score
L7R	1.22
I11T	-0.304
K2N	0.251
F9A	1.27
P1M	0.0947
K2E	0.455
L7W	1.05
K5G	0.756
P3R	0.901
K6A	0.631
R8G	0.0415
L4V	0.142
K5A L7A	-0.0295
R8A	0.421
G13R	1.02
G13Q	0.322
P1H	1.56
P1F	0.631
R8V	0.356

Set 4
Target: RNA binding protein fox-1 homolog 2, RRM domain, GST-SBP tag (RBFOX2, Homo sapiens, UniProt O43251-10, residues 100-194)
Method: RNA Bind-n-Seq
Form: RNA
Matrix: in vitro
Concentration: 365 nM
Notes: natural RNA segment, single round, ends assumed
Reference: no-protein control
Direction: higher = stronger binding
Target sequence (chain): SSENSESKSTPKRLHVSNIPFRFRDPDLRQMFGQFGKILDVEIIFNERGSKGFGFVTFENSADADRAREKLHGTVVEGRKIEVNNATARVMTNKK
Strand	RBNS enrichment (R)
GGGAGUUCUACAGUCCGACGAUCCUCUUUAAAGGUGUAACAUCUUAAAUUUGGUGAUGAAUAGUGACAACCAAAAGACUAGAUUGUGCCUAAGCACUCCUUCUGGAACAACCGAAUGAUCAGCUGCAUAGCAAUGGAAUUCUCGGGUGCCAA	0.338
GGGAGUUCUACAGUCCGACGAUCAAUCAACAGAUUUGUGGACCCUGGUAAAGAAGUUCAGCCAAGUCUCAGUGAAAAAUGUUAAGAAGUUGAUGCAAGCUGCAUGCUCCUUGUUAAGAUGCAGGCUUUGCAUAUGGAAUUCUCGGGUGCCAA	1.28
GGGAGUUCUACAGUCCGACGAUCAAAGGAGCUACCUGCCCUUUCCUGGGCAUGCUUGGUGACUCAGAUUGAUCUUGGAGUGUGCAGUGGCCCUUCUACCCUGCACCUGACCUCAUGAUCCCCUCCACCUGCACUGGAAUUCUCGGGUGCCAA	0.321
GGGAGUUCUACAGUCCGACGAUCUUUGUUUCUUAGAACUUUAACAUUUAUUUUAAUCCUGAAGACACUUUUUUGAUUGUGUUUCGUAAGAGACAACAUGGCCUCCUAAGGUGCAAUCCUGCCGCUAUAGUGAGUGGAAUUCUCGGGUGCCAA	0.686
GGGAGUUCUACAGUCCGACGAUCUCAGAGUGGGCUGGGCCCCUGGGCGAGACACAGCUACCUCUGUUGGCAUCUUUUUAAUACCAGGAACCCAGCGGCUCUAGCCACUGAGCGGCUAAAUGAAAUAAAGUGGAUGGAAUUCUCGGGUGCCAA	0.278
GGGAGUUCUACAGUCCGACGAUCCUUCUGUUUCUCAGGCUCUGGGGAAAGGAAUCUCCCUCUCCUCUCACUUGAUUCCAAGUGUGGUUGAAUUGUCUGGAGCACUGGGACUUUUUUUCUCUUUUCCUUGAUGGUGGAAUUCUCGGGUGCCAA	0.436
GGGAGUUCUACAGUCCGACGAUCCCAGCCAGGGGCGCCAGAGGGCCCUAACAAGAACAGACACCCCUGUCCUUUUGGAUCUGGUCCUGCUCCUACCUGCUCCUUCUCUGCAGAUUGUUAGAAAGUGAACUUUGUGGAAUUCUCGGGUGCCAA	0.379
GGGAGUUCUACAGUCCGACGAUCAAUACUUGGGAUCUUGUUUAGAGAAUCCACUUUCUGGAAGUUCUCAGCAUAAUUAGUGUUGAGAGUGGUUCAGUUGUCUUUAAUGUUUGUCAUGUGGAAAUGGAAGUAGCUGGAAUUCUCGGGUGCCAA	0.69

Single results of other studies
Substance	target	assay	test system	setting	how to read	quantity	value
PhoQ, residues 284 288 289 292 302 303 QWQEDG	PhoP, residues 12 14 15 18 19 HEGLL (Escherichia coli, UniProt P23836)	Sort-seq, measured: YFP reporter	E. coli	PhoQ-PhoP variant library, together with: 10 µM Mg2+	reference: high Mg2+ state, higher = stronger signaling	fold induction	0.782

A few entries again (set 2):
Strand	bound/input enrichment
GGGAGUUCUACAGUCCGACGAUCUGGAAGCUUUGCUGAAAACCUUUCAUUUCUUCUGGAAGCUUUGCAAAAAGGUGACCGGACUAGCAGUUGCCCAGUGAUCUUCAUACUGGAUGAAUUUGAUAUUUUUGCUCAUCAGAAAAACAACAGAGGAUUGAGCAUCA	0.587 ratio
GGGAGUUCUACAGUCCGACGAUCGUACCCCAUCGCGGUGCUCAUAGACGAACUCCGCAAUGAGGACGUUCAGCUUCGCCUCAACAGCAUCAAGAAGCUGUCCACCAUCGCCUUGGCCCUUGGGGUUGAAAGGACCCGAAGUGACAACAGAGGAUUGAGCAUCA	0.0614 ratio
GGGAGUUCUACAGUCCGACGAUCACUGGGAUUACAGGUAUGCACCUAUCAACUUGGGAGUUGAGGGUUUUUUGUUUUGUUUUUUUUUUUUUUAAGGUAAACAACAGUGGGAAAACGGCUCCUUCAUAAAUGAAAACUGUGCACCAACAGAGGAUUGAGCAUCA	0.684 ratio
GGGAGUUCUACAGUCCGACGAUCGCUUCGACCCAGCUGAGGAGCGAAGAGCUGCUGGCAGCGCCGAUUCCCAGCACGCCGCUUUUUAGAACUUCAGUUGUCAAAAUGGGCAGAAUCUUUCUUGACCAUAUCGGUGGUACCCGUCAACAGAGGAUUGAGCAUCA	0.131 ratio
